Measurements collected from several papers.
Compare with care: the assays were run in different laboratories. Numbers after ± are the reported error.

SMILES | test | test system | conditions | how to read | quantity | result
CC(=O)c1c(C)c2cnc(Nc3ccc(C4CCN(CCS(C)(=O)=O)CC4)cn3)nc2n(C2CCCC2)c1=O | – | HR+/HER2- advanced breast cancer patients | oral, 100 mg | – | patients with any TEAE | 100%
N=C(N)NCCC[C@@H](NC(=O)[C@@H](N)Cc1ccccc1)C(=O)N[C@@H](Cc1ccccc1)C(=O)N[C@@H](CCCCN)C(N)=O | LC-MS | human, urine | subcutaneous, 5 mg, 5.833 h, median | – | fraction of dose excreted unchanged | 20.4%
CC/C(=C(\c1ccccc1)c1ccc(OCCN(C)C)cc1)c1ccccc1 | – | CD-1 mouse, male, plasma | intraperitoneal, 1 mg/kg | – | AUC(0-inf) | 385 ng·h/mL
C=CC(=O)N1CC[C@H](n2nc(C#Cc3cc(OC)cc(OC)c3)c3c(N)ncnc32)C1 | – | patients with advanced solid tumours | oral, dose not given, Hyperphosphatemia, any grade, QD, added: sevelamer hydrochloride | – | adverse drug reaction incidence | 100%
C[C@@H](NC(=O)N1C(=O)[C@H](Cc2ccnc(N)c2)[C@H]1C(=O)O)C1CCCCC1 | – | healthy adult Chinese volunteers | continuous intravenous infusion, 2.25 mg/kg/h, 5-day infusion, CTCAE 5.0 grading | – | incidence of hypokalemia | 0%
C=CCNc1c(O)cc2c(O)c1C[C@@H](C)C[C@H](OC)[C@H](O)[C@@H](C)/C=C(\C)[C@H](OC(N)=O)[C@@H](OC)/C=C\C=C(/C)C(=O)N2 | refers to: Myalgia | unresectable or metastatic GIST/STS | intravenous, dose not given, all doses | – | patients with TEAE | 28%
Cn1cncc1-c1c(F)cncc1NC(=O)c1c(N)nn2cc(F)cnc12 | – | human patients | oral, 80 mg once daily | – | grade ≥3 creatinine increase incidence | 0%
O=C(O)C(F)(F)C(F)(F)C(F)(F)C(F)(F)C(F)(F)C(F)(F)C(F)(F)F | 19F NMR chemical shift titration | – | – | lower pKa than literature | pKa shift vs literature | 0.5 to 1 pKa units
O=C1Nc2cc3[nH]nc(-c4ccncc4)c3cc2CN1Cc1ccccc1 | CTCAE v4.03 | advanced solid tumour patients | intravenous, 7.2 mg/kg | – | patients with blurred vision | 33%
CO[C@H]1C[C@@H]2CC[C@@H](C)[C@@](O)(O2)C(=O)C(=O)N2CCCC[C@H]2C(=O)O[C@H]([C@H](C)C[C@@H]2CC[C@@H](OC(=O)NCCOCCOCCOCCOCCOCCOCCOCCOCCC(=O)N3CCc4cc(Cn5nc(-c6ccc7oc(N)nc7c6)c6c(N)ncnc65)ccc4C3)[C@H](OC)C2)C[C@@H](O)[C@H](C)/C=C(\C)[C@@H](O)[C@@H](OC)C(=O)[C@H](C)C[C@H](C)/C=C/C=C/C=C/1C | – | patients with advanced solid tumours | intravenous, 6 mg weekly, grade 3 or higher | – | constipation incidence | 0%
C[C@@H]1OC(=O)NN=C1c1ccc(-c2ccc(F)cc2)c(C(F)(F)F)c1 | phase I trial, refers to: Diarrhoea worst grade 1 | human patients | 10 mg loading then 0.5 mg daily | – | patients with adverse event | 100%
CC(C)C[C@H](NC(=O)[C@H](CCCCN)NC(=O)OCC1c2ccccc2-c2ccccc21)C(=O)N[C@H](C(=O)N[C@@H](Cc1ccccc1)C(=O)N[C@@H](Cc1ccccc1)C(=O)N[C@@H](CCCCN)C(=O)NCC(=O)N[C@@H](Cc1ccccc1)C(=O)N[C@@H](C)C(=O)N[C@@H](Cc1c[nH]c2ccccc12)C(=O)N[C@@H](CC(N)=O)C(=O)N[C@H](C(=O)N[C@H]1CSSC[C@@H](C(=O)N[C@@H](Cc2c[nH]cn2)C(=O)N[C@@H](CCCNC(=N)N)C(=O)N[C@@H](CCCNC(=N)N)C(=O)N[C@@H](C)C(=O)N[C@@H](CC(N)=O)C(N)=O)NC(=O)[C@H](C(C)C)NC(=O)[C@H](CCCNC(=N)N)NC(=O)[C@H](C(C)C)NC(=O)CNC(=O)[C@H](CC(N)=O)NC(=O)[C@H](CCCNC(=N)N)NC(=O)[C@H](Cc2ccc(O)cc2)NC(=O)[C@H](C(C)C)NC1=O)C(C)C)C(C)C | – | ICR mice, serum | intraperitoneal, 10 mg/kg, day 5 | – | calcium | 1.36 ± 0.03 mmol/L
Oc1ccc(Cl)c(-c2ccc(Cl)cc2Cl)c1Cl | enantioselective gas chromatography | racemized sample | column temperature 170 °C | – | enantiomeric fraction | 0.5
CC1(C)[C@H](C=C(Cl)Cl)[C@H]1C(=O)OCc1cccc(Oc2ccccc2)c1 | refers to: CYP2C9 | human, age 5 years, recombinant human CYP2C9 | 0.1 µM | – | enzyme contribution to clearance | 0.85%
C[C@H](O)c1cnc(NS(=O)(=O)c2ccc(C(F)(F)F)c(Cl)c2)nc1 | – | hepatocytes, HSD17B13 knockout with AAV control, C57BL/6J mouse, male | 1 µM | – | scaled intrinsic clearance | < 20 mL/min/kg
N[C@@H]1c2ccccc2OC12CCN(c1cnc3c(N4CCCc5ncccc54)n[nH]c3n1)CC2 | – | patients advanced metastatic solid tumours | oral, 60 mg once daily, pooled RP2D cohorts | – | incidence grade ≥3 serious TEAE | 28%
O=C(O)CCCOc1ccc(F)cc1-c1cc(-c2ccccc2C(F)(F)F)n(-c2ccccc2)n1 | refers to: thyroid | Crl:CD(SD) rats, male | iv, 25 µg/kg, 14 days | – | organ weight | 23.8 ± 3.5 mg

SMILES | test | test system | conditions | how to read | quantity | result
COc1ccc(-c2c(-c3ccc(C#N)c(F)c3)nc(N3CCC(N)CC3)n(C)c2=O)cc1F | refers to: Thrombocytopenia | human patients | oral, dose not given, any grade, dose escalation, NG | – | treatment-related adverse event incidence | 40%
COc1cc2c(Oc3ccc4[nH]c(C)cc4c3F)ccnc2cc1OCC1(N)CC1 | – | paediatric refractory sarcoma patients | 12 mg | – | sinus bradycardia incidence | 0%
O=C(C1CCSCC1)N1CC(=O)N2CCc3ccccc3[C@@H]2C1 | – | NMRI mouse, female, S. mansoni-infected, plasma | oral, 200 mg/kg | – | AUC of (R)-enantiomer | 4.1 µM·h
C[C@]1(CO)Cc2ncn(-c3ccc(C#N)c(Cl)c3)c2C(=O)O1 | – | human | 10 mg single dose | – | subjects with any TEAE | 28.6%
NC(=O)[C@H]1CCN(c2ncnc(N)c2F)C[C@@H]1N1CCC[C@@H](Nc2cc(Cl)cc(C(F)(F)F)c2)C1=O | – | B-cell malignancy patients | oral, 410 mg twice daily, dose | – | grade ≥3 platelet decrease | 0%
COc1ncccc1-c1cnn2ccc(N3CCN(C(=O)OC(C)C)CC3)nc12 | – | rat, thoracic spinal cord | oral, 30 mg/kg, 1.5 h, saline pretreated | – | concentration | 6.4 µM
O=S(=O)([O-])C(F)(F)C(F)(F)C(F)(F)C(F)(F)C(F)(F)C(F)(F)C(F)(F)C(F)(F)F.[K+] | – | male C57BL/6J mice, EtOH-fed, liver | dose not given | baseline: efavirenz and pair-fed | hepatic triglycerides | increased
Cn1cc(-c2nc(N[C@@H]3CCCC[C@@H]3N)c(F)c3c2C(=O)NC3)cn1 | refers to: Conjunctival haemorrhage | patients with relapsed or refractory AML | oral, dose not given, all doses | – | hemorrhagic adverse events | 1 number of patients
CC(C)Nc1ccnc(Nc2cccc(-c3cccnc3)c2)n1 | refers to: ALT | mouse, blood | intraperitoneal, 10 mg/kg | – | blood chemistry | 46.5 U/L
NCCCC[C@@H]1NC(=O)[C@@H](Cc2c[nH]c3ccccc23)NC(=O)[C@H](c2ccccc2)NC(=O)[C@@H]2C[C@@H](OC(=O)NCCN)CN2C(=O)[C@H](Cc2ccccc2)NC(=O)[C@H](Cc2ccc(OCc3ccccc3)cc2)NC1=O | – | healthy human volunteers | 1950 µg twice daily | – | subjects with adverse event Nasopharyngitis | 5%
CC(C)[C@@H]1CC[C@@H](C)C[C@@H]1O | acute oral toxicity OECD | Swiss albino mice, serum | oral, 300 mg/kg | – | alanine aminotransferase | 55.7 ± 3.24 U/L
CCCC1CCC(C2CCC(c3ccc(F)c(F)c3)CC2)CC1 (stereo not shown) | – | rat, placenta | 10 ng/mL in perfusate, low dose, mixture of 21 LCMs | – | placental accumulation | 1.23 ± 2.36 ng/g
CCCCCOc1ccc(-c2ccc(-c3ccc(C(=O)N[C@H]4C[C@@H](O)[C@@H](OCC[N+](C)(C)C)NC(=O)[C@@H]5[C@@H](O)[C@@H](C)CN5C(=O)[C@H]([C@@H](C)O)NC(=O)[C@H]([C@H](O)[C@@H](O)c5ccc(O)cc5)NC(=O)[C@@H]5C[C@@H](O)CN5C(=O)[C@H]([C@@H](C)O)NC4=O)cc3)cc2)cc1 | – | adult ICU patients, mITT, serum | dose not given, Follow-up | – | alanine aminotransferase | 15.1 U/L
CCC(C(=O)Nc1cc(NC2CCNCC2)ccc1C)n1cc(Cl)cc2nc(SCc3ccc(F)cc3)nc1-2 (stereo not shown) | – | mouse, liver microsomes | – | – | intrinsic clearance | 105 mL/min/g protein
O=S(=O)(Nc1ccccc1)c1ccc(NC(=S)Nc2ccccc2)cc1 | – | female mouse, blood | oral, 5 mg/kg daily, 14 days | – | mean corpuscular haemoglobin | 14.9 pg
COC(=O)C1=CCCN(C)C1 | chronic toxicity | nude mouse | intraperitoneal | – | maximum tolerated dose | 50 mg/kg/day
COc1ccnc(C(=O)N[C@H]2COC(=O)[C@H](Cc3ccccc3)[C@@H](OC(=O)C(C)C)[C@H](C)OC2=O)c1OCOC(=O)C(C)C | – | cabbage | concentration not given, foliar application | – | share of total radioactive residue | ≤ 96 % TRR
